Experimental data from different studies.
Each line is one published result; not all experiments were run side by side. Several values in a cell are separate wells, animals, samples, runs or records.
Cell line: Hs-578T

`Cn1cncc1C1=CN(c2ncnc3[nH]cnc23)CCS1` gave a TGI of 29.5 µM.
With `O=C1NCCc2[nH]c(-c3ccncc3)cc21` the IC50 was > 10 µM (MTS; NCI60 panel).
With `CCCCN1CCN(c2ccc3[nH]c(-c4ccc5[nH]c(-c6ccc(OCC)cc6)nc5c4)nc3c2)CC1` the growth percent was 74.4% (SRB; 10 µM, 48 h).
For `Cc1n[nH]c2nc(-c3ccc(Cl)cc3)c3c(NC(=O)c4ccccc4)nnc-3n12`, the cell growth was 101% (SRB; 10 µM, NCI60 single-dose screen; reference: untreated).
`CCCN1CCN(c2ccc3[nH]c(-c4ccc5[nH]c(-c6cc(OC)c(OC)c(OC)c6)nc5c4)nc3c2)CC1` gave a growth percent of 54.1% (SRB; 10 µM, 48 h).
With `CCN(CC)c1ccc(C=NNC(=O)CSc2nc3ccccc3c(=O)n2Cc2ccc(S(N)(=O)=O)cc2)c(O)c1` the TGI was > 100 µM (NCI five-dose screen).
`CCCN1CCN(c2ccc3[nH]c(-c4ccc5[nH]c(-c6ccc(OCC)c(OCC)c6)nc5c4)nc3c2)CC1` gave a growth percent of -37.2% (SRB; 10 µM, 48 h).
`O=C(Nc1nnc2[nH]c(=S)[nH]c(-c3ccc(Cl)cc3)c1-2)c1ccccc1` has a cell growth of 96.4% (SRB; 10 µM, NCI60 single-dose screen; reference: untreated).
With `C#C[C@@]1(O)[C@@H](CO)O[C@@H](n2cc(I)c3c(N)ncnc32)[C@@H]1O` the TGI was 7.12 µM and 8.62 µM (SRB; NCI-60 screen).
With `CCCCN1CCN(c2ccc3[nH]c(-c4ccc5[nH]c(-c6ccc(C(F)(F)F)cc6)nc5c4)nc3c2)CC1` the growth percent was -64.3% (SRB; 10 µM, 48 h).
`CSc1nc(-c2ccc(Cl)cc2)c2c(NC(=O)c3ccccc3)nnc-2[nH]1` gave a cell growth of 86.7% (SRB; 10 µM, NCI60 single-dose screen; reference: untreated).
For `C#C[C@@]1(O)[C@@H](CO)O[C@@H](n2ccc3c(N)ncnc32)[C@@H]1O`, the TGI was > 100 µM (SRB; NCI-60 screen).

For quick reference, copied from above:
`O=C(Nc1nnc2[nH]c(=S)[nH]c(-c3ccc(Cl)cc3)c1-2)c1ccccc1` has a cell growth of 96.4% (SRB; 10 µM, NCI60 single-dose screen; reference: untreated).
